Measured values of several laboratories.
Compare with care: the assays were run in different laboratories. ± gives the spread as reported.
ORM1 F1/S variants: Alpha-1-acid glycoprotein 1, F1/S variants (ORM1, Homo sapiens, UniProt P02763)
UniProt P02763, sequence (whole entry, looked up): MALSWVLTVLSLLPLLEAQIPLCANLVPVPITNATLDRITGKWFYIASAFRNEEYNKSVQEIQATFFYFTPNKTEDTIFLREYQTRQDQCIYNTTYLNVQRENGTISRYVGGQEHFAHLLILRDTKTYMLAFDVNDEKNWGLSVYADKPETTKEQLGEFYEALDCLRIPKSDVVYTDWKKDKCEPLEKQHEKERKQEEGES
OSBP2: Oxysterol-binding protein 2 (OSBP2, Homo sapiens, UniProt Q969R2)
UniProt Q969R2, sequence (whole entry, looked up): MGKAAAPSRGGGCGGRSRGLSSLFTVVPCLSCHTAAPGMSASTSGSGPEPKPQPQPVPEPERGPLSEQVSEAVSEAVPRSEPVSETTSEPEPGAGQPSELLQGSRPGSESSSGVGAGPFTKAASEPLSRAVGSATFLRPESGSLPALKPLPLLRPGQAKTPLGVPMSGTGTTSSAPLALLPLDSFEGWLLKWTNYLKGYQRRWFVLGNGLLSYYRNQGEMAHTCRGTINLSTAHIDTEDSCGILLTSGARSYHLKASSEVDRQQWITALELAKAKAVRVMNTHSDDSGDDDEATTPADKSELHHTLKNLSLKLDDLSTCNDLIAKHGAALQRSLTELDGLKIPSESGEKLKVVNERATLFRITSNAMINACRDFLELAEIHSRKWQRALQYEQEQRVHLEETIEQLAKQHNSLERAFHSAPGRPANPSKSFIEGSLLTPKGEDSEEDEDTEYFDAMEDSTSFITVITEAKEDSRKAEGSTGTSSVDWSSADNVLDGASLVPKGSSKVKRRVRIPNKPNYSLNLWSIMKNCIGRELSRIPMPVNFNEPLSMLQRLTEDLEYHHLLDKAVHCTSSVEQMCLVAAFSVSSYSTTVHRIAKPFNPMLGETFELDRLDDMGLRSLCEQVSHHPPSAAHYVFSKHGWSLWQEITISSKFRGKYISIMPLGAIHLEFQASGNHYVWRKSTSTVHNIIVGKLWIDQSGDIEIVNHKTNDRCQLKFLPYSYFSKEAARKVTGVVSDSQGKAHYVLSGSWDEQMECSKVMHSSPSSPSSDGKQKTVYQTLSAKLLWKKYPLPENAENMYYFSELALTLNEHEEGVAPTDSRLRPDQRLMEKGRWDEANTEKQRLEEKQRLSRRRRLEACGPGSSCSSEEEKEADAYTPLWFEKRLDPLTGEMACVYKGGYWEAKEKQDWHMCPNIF
VHL with elongin B/C: von Hippel-Lindau disease tumor suppressor, with elongin B/C (VHL, Homo sapiens, UniProt P40337)
uncharacterized protein: uncharacterized protein (Spodoptera exigua, UniProt F1CEY0)
UniProt Q00535, sequence (whole entry, looked up): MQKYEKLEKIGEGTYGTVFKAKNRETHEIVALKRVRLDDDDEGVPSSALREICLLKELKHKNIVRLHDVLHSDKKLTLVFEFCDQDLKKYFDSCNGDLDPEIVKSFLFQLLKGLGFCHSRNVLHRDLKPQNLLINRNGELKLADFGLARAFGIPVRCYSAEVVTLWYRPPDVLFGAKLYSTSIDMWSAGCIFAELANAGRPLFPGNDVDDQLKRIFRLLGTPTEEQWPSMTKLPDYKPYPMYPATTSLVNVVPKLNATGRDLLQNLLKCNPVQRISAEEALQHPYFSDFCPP
UniProt O15245, sequence (whole entry, looked up): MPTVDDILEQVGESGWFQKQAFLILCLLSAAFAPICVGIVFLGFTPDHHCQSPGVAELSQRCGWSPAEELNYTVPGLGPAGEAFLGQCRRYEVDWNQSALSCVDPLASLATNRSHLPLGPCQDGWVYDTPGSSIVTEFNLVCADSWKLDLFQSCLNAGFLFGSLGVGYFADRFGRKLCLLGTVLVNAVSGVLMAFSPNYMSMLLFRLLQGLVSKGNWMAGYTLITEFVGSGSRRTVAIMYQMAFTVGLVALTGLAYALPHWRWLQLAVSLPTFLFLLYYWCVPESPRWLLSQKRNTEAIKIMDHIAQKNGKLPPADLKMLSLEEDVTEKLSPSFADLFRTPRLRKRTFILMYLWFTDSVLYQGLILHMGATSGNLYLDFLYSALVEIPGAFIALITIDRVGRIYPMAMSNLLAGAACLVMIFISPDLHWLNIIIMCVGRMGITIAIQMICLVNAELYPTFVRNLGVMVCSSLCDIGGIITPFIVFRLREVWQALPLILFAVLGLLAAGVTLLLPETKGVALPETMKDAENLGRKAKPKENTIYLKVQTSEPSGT
UniProt P0DMS8, sequence (whole entry, looked up): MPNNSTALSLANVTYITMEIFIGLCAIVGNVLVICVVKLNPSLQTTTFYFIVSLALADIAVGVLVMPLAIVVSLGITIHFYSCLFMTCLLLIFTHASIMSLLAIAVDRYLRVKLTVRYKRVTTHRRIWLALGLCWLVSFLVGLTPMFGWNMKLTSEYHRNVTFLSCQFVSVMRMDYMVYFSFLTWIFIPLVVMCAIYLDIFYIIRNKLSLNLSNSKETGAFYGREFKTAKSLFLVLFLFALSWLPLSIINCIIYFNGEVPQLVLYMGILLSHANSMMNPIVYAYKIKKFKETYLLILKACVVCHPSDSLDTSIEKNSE
UniProt P52790, sequence (whole entry, looked up): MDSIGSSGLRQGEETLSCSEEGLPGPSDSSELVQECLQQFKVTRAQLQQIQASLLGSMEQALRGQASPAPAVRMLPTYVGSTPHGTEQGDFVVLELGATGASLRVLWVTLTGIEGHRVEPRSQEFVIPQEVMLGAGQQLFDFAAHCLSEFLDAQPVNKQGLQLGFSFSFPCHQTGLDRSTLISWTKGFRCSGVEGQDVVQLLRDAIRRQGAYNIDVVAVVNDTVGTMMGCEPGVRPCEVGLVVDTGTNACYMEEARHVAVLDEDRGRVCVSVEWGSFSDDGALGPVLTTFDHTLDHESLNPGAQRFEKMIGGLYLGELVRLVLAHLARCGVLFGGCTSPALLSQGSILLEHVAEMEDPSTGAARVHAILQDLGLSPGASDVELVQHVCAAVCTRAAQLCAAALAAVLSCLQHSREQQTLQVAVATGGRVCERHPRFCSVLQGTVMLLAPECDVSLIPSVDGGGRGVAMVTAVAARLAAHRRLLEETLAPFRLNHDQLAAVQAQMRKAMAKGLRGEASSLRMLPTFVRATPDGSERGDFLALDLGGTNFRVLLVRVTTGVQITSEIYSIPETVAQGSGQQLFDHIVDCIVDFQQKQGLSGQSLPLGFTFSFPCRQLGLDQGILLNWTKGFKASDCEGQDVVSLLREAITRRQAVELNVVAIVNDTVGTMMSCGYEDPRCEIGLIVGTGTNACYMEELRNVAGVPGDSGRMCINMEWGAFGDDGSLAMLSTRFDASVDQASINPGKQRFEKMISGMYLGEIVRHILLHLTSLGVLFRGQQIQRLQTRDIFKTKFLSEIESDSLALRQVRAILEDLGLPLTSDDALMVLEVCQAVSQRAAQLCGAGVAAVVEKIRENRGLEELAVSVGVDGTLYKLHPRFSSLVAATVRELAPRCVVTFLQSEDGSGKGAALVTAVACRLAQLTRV
UniProt Q00534, sequence (whole entry, looked up): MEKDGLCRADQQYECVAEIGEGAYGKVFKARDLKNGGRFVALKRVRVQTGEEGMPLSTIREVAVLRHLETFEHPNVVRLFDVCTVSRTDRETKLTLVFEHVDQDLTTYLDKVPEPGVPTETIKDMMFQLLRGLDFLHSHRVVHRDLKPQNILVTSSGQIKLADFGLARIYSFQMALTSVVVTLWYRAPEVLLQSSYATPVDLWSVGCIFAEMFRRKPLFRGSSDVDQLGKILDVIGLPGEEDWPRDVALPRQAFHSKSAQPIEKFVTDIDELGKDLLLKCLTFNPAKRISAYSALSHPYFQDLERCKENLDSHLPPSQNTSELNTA
UniProt Q9NXA8, sequence (whole entry, looked up): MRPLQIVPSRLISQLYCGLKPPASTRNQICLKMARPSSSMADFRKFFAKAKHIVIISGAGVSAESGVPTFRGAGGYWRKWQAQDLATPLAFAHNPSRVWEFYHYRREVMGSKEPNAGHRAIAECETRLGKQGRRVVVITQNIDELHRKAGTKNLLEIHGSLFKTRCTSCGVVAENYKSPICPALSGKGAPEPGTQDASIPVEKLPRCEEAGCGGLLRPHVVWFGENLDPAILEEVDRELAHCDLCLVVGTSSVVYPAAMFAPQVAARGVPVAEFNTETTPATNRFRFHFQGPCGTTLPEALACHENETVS

SMILES | target | test | test system | setting | Ki [µM]
CCN(CC)CCCN(c1ccccc1)C1Cc2ccccc2C1 | ORM1 F1/S variants | competitive inhibitor, ultrafiltration |  | 15 min, 37 °C, added: [3H]S-warfarin | 13.1
O=C(CCc1ccc(O)cc1)N[C@H]1C(O)O[C@H](CO)[C@@H](O)[C@@H]1O (some centres unmarked) | Glucokinase (Leishmania braziliensis, UniProt A4HPA0) |  |  |  | 56.9 ± 16.6
C[C@@]1(O)CCC[C@H]1n1c(=O)c(C(F)F)cc2cnc(NC3CCN(S(C)(=O)=O)CC3)nc21 | Cyclin-dependent kinase 5, with p25 (CDK5, Homo sapiens, UniProt Q00535) | kinase activity, inhibitor, fluorescence |  |  | 0.00013
COC(=O)C1=C(C)NC(C)=C(C(=O)OCCN(C)Cc2ccccc2)C1c1cccc([N+](=O)[O-])c1 (centres unmarked) | ORM1 F1/S variants | competitive inhibitor, ultrafiltration |  | 15 min, 37 °C, added: [3H]S-warfarin | 3.19
Nc1nc(NCCc2ccc(O)cc2)nc2nc(-c3ccco3)nn12 | ADORA3 (Homo sapiens, UniProt P0DMS8) | NanoBRET competition binding | HEK293 expressing Nluc-A3 | co-addition with tracer | 3.24
C[C@H](CCC(=O)O)[C@H]1CC[C@H]2[C@@H]3[C@@H](O)C[C@@H]4C[C@H](O)CC[C@]4(C)[C@H]3CC[C@]12C | OSBP2 | [3H]-25-hydroxycholesterol binding, competitive inhibitor |  |  | > 100
CCOC(=O)[C@H](CCc1ccccc1)N[C@H]1CCc2ccccc2N(CC(=O)O)C1=O | ORM1 F1/S variants | competitive inhibitor, ultrafiltration |  | 15 min, 37 °C, added: [3H]S-warfarin | 58.9
COCc1cc(C(=O)Nc2cc([C@H]3CC[C@@H](OC(=O)NC(C)C)C3)[nH]n2)n(C)n1 | Cyclin-dependent kinase 6, with cyclin D3 (CDK6, Homo sapiens, UniProt Q00534) | kinase activity, inhibitor, fluorescence |  |  | > 0.702
COc1cc(N2CCC(N3CCN(C)CC3)CC2)ccc1Nc1ncc(Cl)c(Nc2ccccc2P(C)(C)=O)n1 | SLC22A1 (Homo sapiens, UniProt O15245) | transport, inhibitor | HEK cells transfected with SLC22A1 | added: MPP+ 5 µM substrate | 5.58
Cc1ncsc1-c1ccc(CNC(=O)[C@@H]2C[C@H](O)CN2C(=O)[C@@H](NC(=O)C2(F)CC2)C(C)(C)C)c(OCCOc2ccc(CN3CCN(c4cc(-c5ccccc5O)nnc4N)CC3)cc2)c1 | VHL with elongin B/C | binding |  |  | > 30
O=C1CC(CCNC(=S)NCCCC[C@H](NS(=O)(=O)c2cccc(F)c2)C(=O)N[C@@H](Cc2c[nH]c3ccccc23)C(=O)NC2CCC2)=NO1 | SIRT5 (Homo sapiens, UniProt Q9NXA8) | slow-binding inhibitor, continuous enzyme |  |  | 0.122
OC[C@H]1OC(O)[C@H](O)[C@@H](O)[C@@H]1O (some centres unmarked) | Hexokinase-3 (HK3, Homo sapiens, UniProt P52790) | substrate inhibition |  | added: ATP 20 mM, saturating | 9200 ± 500
O=c1cccccc1O | CA2 (Homo sapiens, UniProt P00918, L197G) | esterase activity, inhibitor, p-nitrophenyl acetate hydrolysis |  | pH 8.0 | 245 ± 14
CCCCCCCCCCOC(C)=O | uncharacterized protein | binding |  | added: 1-NPN | 4.87
COC(=O)C1=C(C)NC(C)=C(C(=O)O[C@H]2CCN(Cc3ccccc3)C2)[C@H]1c1cccc([N+](=O)[O-])c1 | ORM1 F1/S variants | competitive inhibitor, ultrafiltration |  | 15 min, 37 °C, added: [3H]tamsulosin | 17.4
Cc1ncsc1-c1ccc(CNC(=O)[C@@H]2C[C@H](O)CN2C(=O)[C@@H](NC(=O)C2(F)CC2)C(C)(C)C)c(OCCc2ccc(CN3CCN(c4cc(-c5ccccc5O)nnc4N)CC3)cc2)c1 | VHL with elongin B/C | binding |  |  | > 30
CSc1ccc2c(c1)N(CCC1CCCCN1C)c1ccccc1S2 (centres unmarked) | ORM1 F1/S variants | competitive inhibitor, ultrafiltration |  | 15 min, 37 °C, added: [3H]tamsulosin | 1.31
C[C@H](CCCC(C)(C)O)[C@H]1CC[C@H]2[C@@H]3CC=C4C[C@@H](O)CC[C@]4(C)[C@H]3CC[C@]12C | OSBP2 | binding, radioligand competition |  | added: [3H]-25-hydroxycholesterol | 0.055 ± 0.008
CCCCCCCCCOC(C)=O | uncharacterized protein | binding |  | added: 1-NPN | 8.44
CC(=O)[C@H]1CC[C@H]2[C@@H]3CCC4=CC(=O)CC[C@]4(C)[C@H]3CC[C@]12C | ORM1 F1/S variants | competitive inhibitor, ultrafiltration |  | 15 min, 37 °C, added: [3H]S-warfarin | 54.9

A few entries again:
SMILES | target | test | test system | setting | Ki [µM]
O=C(CCc1ccc(O)cc1)N[C@H]1C(O)O[C@H](CO)[C@@H](O)[C@@H]1O (some centres unmarked) | Glucokinase (Leishmania braziliensis, UniProt A4HPA0) |  |  |  | 56.9 ± 16.6
C[C@@]1(O)CCC[C@H]1n1c(=O)c(C(F)F)cc2cnc(NC3CCN(S(C)(=O)=O)CC3)nc21 | Cyclin-dependent kinase 5, with p25 (CDK5, Homo sapiens, UniProt Q00535) | kinase activity, inhibitor, fluorescence |  |  | 0.00013
COC(=O)C1=C(C)NC(C)=C(C(=O)OCCN(C)Cc2ccccc2)C1c1cccc([N+](=O)[O-])c1 (centres unmarked) | ORM1 F1/S variants | competitive inhibitor, ultrafiltration |  | 15 min, 37 °C, added: [3H]S-warfarin | 3.19
